# Measured values gathered from unrelated publications.
# Compare with care: the assays were run in different laboratories.
SMILES,assay,system,setting,how to read,measurement,result
CNC(=O)c1cc(Oc2ccc(NC(=O)Nc3cc(C(C)(C)C)nn3-c3ccc4ncccc4c3)c(F)c2)ccn1,measured: worst grade 1,human,"oral, dose not given, cycles 1 and 2, Medium Cmax subgroup",,patients with visual abnormality AE,33%
CNCc1ccc(-c2[nH]c3cc(F)cc4c3c2CCNC4=O)cc1,measured: Dizziness,human patients,"oral, dose not given, all grades, all doses",,patients with adverse event,16.1%
O=C(Nc1ccc(OC(F)(F)Cl)cc1)c1cnc(N2CC[C@@H](O)C2)c(-c2ccn[nH]2)c1,"measured: Lipase increase, grade ≥3","human patients, dose-finding study","oral, sample D of sample B patients",,patients with event,18.2%
Cn1cnc2ccc(Nc3c(F)ccc(NS(=O)(=O)N4CC(F)C4)c3Cl)c(Cl)c2c1=O,measured: fatigue grade ≥3,human patients,"dose not given, monotherapy trial",reference: patients,patients with fatigue,0%
Cc1ccc(C(=O)N(CCCN)C(c2nc3snc(C)c3c(=O)n2Cc2ccccc2)C(C)C)cc1 (stereo not drawn),measured: Pneumonia,human patients,"intravenous, dose not given, CTCAE grade ≥3, all doses",,patients with adverse events,5%
CNC(=O)c1ccc(-c2cnc3ncc(Cc4ccc5ncccc5c4)n3n2)cc1F,measured: blood creatinine increased,"human, expansion cohort, other tumours","oral, 600 mg twice daily (RP2D), all grades, any causality, CTCAE v4.0",,patients with adverse event,11%
CCOc1c([C@H](C)n2nc(C)c3c(N)ncnc32)cc(Cl)c(F)c1[C@@H]1CNC(=O)C1,,human B-cell malignancy patients,"oral, 30 mg once daily",,patients with ΔQTcF 30-60 ms,3.8%
O=C(NO)c1ccc(CN(c2cnccn2)c2cnccn2)cc1,measured: urinary tract infection,human,"oral, dose not given, all dose cohorts, sample B patients",,patients with adverse event,20%
CCn1cc(C(=O)N2CCOCC2)c(=O)c2cc(NC3Cc4ccccc4C3)cnc21,,"human, GAD, PTSD or social anxiety disorder","dose not given, TEAE Nausea, pooled phase trials",,patients with adverse event,6%
